Published values of several laboratories.
Numbered parts are unrelated; each lists some results of a single study. “And” joins repeats or separate records; there may be more than shown.
UniProt P46098, sequence (whole entry, looked up): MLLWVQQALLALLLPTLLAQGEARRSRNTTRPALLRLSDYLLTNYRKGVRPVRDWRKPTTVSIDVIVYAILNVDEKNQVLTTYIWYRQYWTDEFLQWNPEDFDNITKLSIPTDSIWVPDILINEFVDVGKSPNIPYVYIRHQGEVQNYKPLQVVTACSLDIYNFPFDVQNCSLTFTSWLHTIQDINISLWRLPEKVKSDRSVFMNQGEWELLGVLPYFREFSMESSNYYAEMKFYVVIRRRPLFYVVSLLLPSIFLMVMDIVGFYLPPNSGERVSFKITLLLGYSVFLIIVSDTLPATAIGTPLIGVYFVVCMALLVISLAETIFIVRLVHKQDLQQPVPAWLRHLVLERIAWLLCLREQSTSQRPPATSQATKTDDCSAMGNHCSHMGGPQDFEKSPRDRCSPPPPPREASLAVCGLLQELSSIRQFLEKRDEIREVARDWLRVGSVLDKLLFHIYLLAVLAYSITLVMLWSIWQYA
UniProt P21728, sequence (whole entry, looked up): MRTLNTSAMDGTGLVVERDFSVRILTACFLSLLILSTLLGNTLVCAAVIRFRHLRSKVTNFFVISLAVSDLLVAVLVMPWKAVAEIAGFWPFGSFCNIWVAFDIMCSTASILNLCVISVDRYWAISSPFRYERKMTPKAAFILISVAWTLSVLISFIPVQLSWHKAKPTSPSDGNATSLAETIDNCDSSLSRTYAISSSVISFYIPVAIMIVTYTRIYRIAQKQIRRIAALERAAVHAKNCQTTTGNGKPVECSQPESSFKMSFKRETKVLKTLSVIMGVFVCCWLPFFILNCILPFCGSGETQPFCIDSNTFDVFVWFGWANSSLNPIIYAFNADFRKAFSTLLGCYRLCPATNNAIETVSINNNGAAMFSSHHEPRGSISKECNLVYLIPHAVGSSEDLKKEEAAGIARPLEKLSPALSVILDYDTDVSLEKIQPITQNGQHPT
UniProt P35368, sequence (whole entry, looked up): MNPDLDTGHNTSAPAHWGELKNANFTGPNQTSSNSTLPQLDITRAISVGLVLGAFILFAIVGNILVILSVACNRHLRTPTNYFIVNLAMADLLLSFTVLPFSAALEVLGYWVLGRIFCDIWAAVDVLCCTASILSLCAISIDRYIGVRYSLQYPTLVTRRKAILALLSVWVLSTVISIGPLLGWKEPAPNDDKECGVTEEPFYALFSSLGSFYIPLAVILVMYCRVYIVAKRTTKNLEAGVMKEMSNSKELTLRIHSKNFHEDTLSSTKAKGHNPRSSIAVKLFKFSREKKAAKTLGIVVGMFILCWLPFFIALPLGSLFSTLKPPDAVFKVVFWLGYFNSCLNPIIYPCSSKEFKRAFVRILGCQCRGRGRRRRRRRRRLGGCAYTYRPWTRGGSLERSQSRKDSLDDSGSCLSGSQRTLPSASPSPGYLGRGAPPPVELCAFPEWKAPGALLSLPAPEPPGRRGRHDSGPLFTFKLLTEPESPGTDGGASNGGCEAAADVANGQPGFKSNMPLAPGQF
UniProt P41595, sequence (whole entry, looked up): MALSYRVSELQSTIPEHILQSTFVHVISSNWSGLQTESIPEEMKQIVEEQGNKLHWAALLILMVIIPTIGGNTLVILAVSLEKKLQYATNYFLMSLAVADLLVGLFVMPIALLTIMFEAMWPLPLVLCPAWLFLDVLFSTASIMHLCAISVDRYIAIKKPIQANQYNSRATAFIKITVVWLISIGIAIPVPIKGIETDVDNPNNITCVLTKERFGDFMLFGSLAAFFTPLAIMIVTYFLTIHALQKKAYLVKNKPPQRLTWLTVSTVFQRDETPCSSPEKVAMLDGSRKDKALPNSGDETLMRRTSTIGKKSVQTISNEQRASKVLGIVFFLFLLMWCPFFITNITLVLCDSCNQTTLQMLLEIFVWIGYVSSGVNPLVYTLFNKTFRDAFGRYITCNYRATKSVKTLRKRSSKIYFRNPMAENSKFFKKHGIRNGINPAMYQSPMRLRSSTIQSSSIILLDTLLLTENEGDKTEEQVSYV
UniProt P13945, sequence (whole entry, looked up): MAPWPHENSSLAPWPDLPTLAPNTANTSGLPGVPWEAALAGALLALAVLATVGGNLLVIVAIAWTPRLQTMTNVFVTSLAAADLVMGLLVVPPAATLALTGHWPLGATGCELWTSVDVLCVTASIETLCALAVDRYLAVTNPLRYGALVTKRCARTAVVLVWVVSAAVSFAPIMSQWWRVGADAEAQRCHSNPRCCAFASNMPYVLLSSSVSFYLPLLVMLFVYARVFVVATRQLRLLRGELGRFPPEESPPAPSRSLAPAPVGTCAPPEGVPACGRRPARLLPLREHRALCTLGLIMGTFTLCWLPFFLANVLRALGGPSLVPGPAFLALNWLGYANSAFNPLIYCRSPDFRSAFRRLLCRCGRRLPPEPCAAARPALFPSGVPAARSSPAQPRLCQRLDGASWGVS
UniProt P21917, sequence (whole entry, looked up): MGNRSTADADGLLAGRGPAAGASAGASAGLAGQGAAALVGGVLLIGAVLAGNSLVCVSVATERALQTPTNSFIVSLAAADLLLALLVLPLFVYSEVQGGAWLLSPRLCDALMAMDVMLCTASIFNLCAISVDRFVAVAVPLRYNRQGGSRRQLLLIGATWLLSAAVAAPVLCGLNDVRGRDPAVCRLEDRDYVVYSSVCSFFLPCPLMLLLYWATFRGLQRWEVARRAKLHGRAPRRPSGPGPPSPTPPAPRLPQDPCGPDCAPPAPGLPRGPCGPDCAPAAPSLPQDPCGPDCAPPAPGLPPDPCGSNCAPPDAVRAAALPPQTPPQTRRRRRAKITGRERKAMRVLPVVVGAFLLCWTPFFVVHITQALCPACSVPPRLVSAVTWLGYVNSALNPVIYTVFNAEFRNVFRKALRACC
UniProt P08173, sequence (whole entry, looked up): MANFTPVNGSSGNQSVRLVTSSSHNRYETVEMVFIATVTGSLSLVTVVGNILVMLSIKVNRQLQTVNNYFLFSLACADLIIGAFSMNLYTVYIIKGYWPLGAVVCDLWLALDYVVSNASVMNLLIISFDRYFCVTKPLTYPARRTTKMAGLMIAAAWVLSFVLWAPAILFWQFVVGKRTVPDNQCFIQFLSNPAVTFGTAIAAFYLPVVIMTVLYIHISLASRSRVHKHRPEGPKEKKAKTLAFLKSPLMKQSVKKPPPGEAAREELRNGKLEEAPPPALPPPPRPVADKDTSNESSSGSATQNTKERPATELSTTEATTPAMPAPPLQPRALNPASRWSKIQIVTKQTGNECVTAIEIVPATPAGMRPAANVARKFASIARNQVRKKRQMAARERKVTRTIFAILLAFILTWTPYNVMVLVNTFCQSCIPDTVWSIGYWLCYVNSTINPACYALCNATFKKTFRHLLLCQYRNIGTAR
UniProt P34969, sequence (whole entry, looked up): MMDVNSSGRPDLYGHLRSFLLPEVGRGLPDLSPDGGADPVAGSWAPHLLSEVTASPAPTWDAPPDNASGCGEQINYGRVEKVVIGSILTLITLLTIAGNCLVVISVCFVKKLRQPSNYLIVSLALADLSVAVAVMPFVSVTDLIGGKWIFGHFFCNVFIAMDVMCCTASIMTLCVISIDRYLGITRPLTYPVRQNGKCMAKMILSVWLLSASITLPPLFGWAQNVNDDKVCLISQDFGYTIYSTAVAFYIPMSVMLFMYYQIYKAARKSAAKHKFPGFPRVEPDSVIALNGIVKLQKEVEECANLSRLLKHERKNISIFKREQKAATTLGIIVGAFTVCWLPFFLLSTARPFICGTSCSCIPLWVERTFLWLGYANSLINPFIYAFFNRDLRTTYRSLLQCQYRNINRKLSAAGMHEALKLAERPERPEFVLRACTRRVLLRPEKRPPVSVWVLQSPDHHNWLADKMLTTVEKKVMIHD
UniProt Q99720, sequence (whole entry, looked up): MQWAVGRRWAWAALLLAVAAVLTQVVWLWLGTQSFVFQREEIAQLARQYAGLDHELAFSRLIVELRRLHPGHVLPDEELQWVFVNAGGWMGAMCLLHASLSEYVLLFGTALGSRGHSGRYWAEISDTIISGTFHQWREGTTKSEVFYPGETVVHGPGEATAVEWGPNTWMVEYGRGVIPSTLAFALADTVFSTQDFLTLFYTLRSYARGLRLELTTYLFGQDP

Study 1
Target: Calcium/calmodulin-dependent protein kinase type II subunit alpha (CAMK2A, Homo sapiens, UniProt Q9UQM7)
UniProt Q9UQM7, sequence (whole entry, looked up): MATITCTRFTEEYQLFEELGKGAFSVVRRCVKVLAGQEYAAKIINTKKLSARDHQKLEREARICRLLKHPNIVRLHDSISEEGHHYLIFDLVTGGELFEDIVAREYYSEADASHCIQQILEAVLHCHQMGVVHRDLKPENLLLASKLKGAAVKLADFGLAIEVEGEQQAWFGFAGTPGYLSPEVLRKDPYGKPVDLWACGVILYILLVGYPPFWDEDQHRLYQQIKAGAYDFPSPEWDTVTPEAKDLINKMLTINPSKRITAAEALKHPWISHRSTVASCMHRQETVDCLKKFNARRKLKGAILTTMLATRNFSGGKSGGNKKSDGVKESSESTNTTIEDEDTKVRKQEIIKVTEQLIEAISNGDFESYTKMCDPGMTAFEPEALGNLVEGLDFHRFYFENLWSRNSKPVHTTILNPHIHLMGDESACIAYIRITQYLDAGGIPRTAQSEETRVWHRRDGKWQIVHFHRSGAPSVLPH
Effect on: enzyme activity
Action: inhibitor
Concentration: 10 µM
| Structure (SMILES) | inhibition |
| --- | --- |
| NS(=O)(=O)c1ccc(C(=O)O)cc1 | -9% |
| CC(C)[C@@H](C)/C=C/[C@@H](C)[C@H]1CC[C@H]2C3=CC=C4C[C@@H](O)CC[C@]4(C)[C@H]3CC[C@]12C | 33% |
| CCCCCCCCOc1ccccc1C(=O)Nc1ccc(C(=O)OCC[N+](C)(CC)CC)cc1 | -8% |
| Cc1cccn2c(=O)c(-c3nnn[nH]3)cnc12 | -5% |
| Nc1ccc(S(=O)(=O)c2ccc(N)cc2)cc1 | -10% |
| CNCC(O)c1ccc(OC(=O)C(C)(C)C)c(OC(=O)C(C)(C)C)c1 (stereo not shown) | -5% |
| O=c1cc(-c2ccc(O)cc2)oc2cc(O)c([C@@H]3O[C@H](CO)[C@@H](O)[C@H](O)[C@H]3O)c(O)c12 | 19% |
| CC(C)(C)NC(=O)N[C@H](C(=O)N1C[C@H]2[C@@H]([C@H]1C(=O)NC(CC1CCC1)C(=O)C(N)=O)C2(C)C)C(C)(C)C (stereo partly shown) | -1% |
| COc1cc(-c2oc3cc(O)cc(O)c3c(=O)c2O[C@@H]2O[C@H](CO[C@@H]3O[C@@H](C)[C@H](O)[C@@H](O)[C@H]3O)[C@@H](O)[C@H](O)[C@H]2O[C@@H]2O[C@@H](C)[C@H](O)[C@@H](O)[C@H]2O)ccc1O | 2% |
| C[C@H]1O[C@@H](O[C@H]2CC[C@@]3(C)[C@@H](CC[C@]4(C)[C@@H]3C=CC3=C5CC(C)(C)CC[C@]5(CO)[C@@H](O)C[C@]34C)[C@]2(C)CO)[C@H](O[C@@H]2O[C@H](CO)[C@@H](O)[C@H](O)[C@H]2O)[C@@H](O[C@@H]2O[C@H](CO)[C@@H](O)[C@H](O)[C@H]2O)[C@H]1O | 8% |
| C=C(C)[C@H](CC=C(C)C)Cc1c(O)cc(O)c2c1O[C@H](c1ccccc1O)CC2=O | 5% |
| CSSSC | -22% |
| CC(=O)OCC(=O)[C@@]12OC3(CCCC3)O[C@@H]1C[C@H]1[C@@H]3CCC4=CC(=O)C=C[C@]4(C)[C@@]3(F)[C@@H](O)C[C@@]12C | 4% |
| COc1nccnc1CC(C)C | 36% |
| CC(C)(O[C@@H]1O[C@H](CO)[C@@H](O)[C@H](O)[C@H]1O)[C@H]1Cc2cc3ccc(=O)oc3cc2O1 | -13% |
| O=S(=O)(O)c1cc(O)ccc1O | 0.03% and 0% |
| CC(C)(C)c1cc(-c2cc(-c3ccc(C(=O)O)cc3)ccc2OCCO)ccc1N1CCCC1 | -4% |

Study 2
SMILES: CCNC(=O)c1cc2c(N3CCOC[C@@H]3C)ccnc2[nH]1
Effect on: ligand displacement
Method: radioligand
Concentration: 10 µM
| target | inhibition |
| --- | --- |
| ADRA2A (Homo sapiens, UniProt P08913) | 18.1% |
| ADRB3 (Homo sapiens, UniProt P13945) | 14.3% |
| ADRA1A (Homo sapiens, UniProt P35348) | 1.88% |
| ADRB2 (Homo sapiens, UniProt P07550) | -6.09% |
| DRD1 (Homo sapiens, UniProt P21728) | 1.92% |
| HTR3A (Homo sapiens, UniProt P46098) | -1.37% |
| ADRA1B (Homo sapiens, UniProt P35368) | -2.4% |
| SIGMAR1 (Homo sapiens, UniProt Q99720) | 24.3% |
| HTR7 (Homo sapiens, UniProt P34969) | -4.45% |
| HTR6 (Homo sapiens, UniProt P50406) | -8.52% |
| DRD4 (Homo sapiens, UniProt P21917) | -3.84% |
| HRH4 (Homo sapiens, UniProt Q9H3N8) | 0.0286% |
| CHRM4 (Homo sapiens, UniProt P08173) | -13.8% |
| HTR2B (Homo sapiens, UniProt P41595) | 47.1% |

Study 3
Target: Tyrosine-protein kinase HCK (HCK, Homo sapiens, UniProt P08631)
UniProt P08631, sequence (whole entry, looked up): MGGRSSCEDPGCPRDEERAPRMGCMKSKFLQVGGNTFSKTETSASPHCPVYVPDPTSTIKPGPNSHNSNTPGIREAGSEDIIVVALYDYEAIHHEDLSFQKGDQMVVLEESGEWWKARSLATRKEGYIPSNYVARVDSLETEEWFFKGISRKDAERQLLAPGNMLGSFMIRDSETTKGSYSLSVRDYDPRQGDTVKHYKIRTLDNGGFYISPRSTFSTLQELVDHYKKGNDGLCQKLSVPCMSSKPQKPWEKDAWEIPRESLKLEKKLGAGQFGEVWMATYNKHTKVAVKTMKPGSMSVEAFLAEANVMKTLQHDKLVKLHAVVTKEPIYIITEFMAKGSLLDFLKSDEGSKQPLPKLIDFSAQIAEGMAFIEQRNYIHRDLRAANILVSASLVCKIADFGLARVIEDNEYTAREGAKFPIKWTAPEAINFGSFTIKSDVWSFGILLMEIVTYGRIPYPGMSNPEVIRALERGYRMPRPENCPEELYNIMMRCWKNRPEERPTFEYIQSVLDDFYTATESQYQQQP
Effect on: enzyme activity
Action: inhibitor
Concentration: 0.5 µM
Relative to: control
| Compound | remaining activity [%] |
| --- | --- |
| O=c1cc(-c2cccc3c2Sc2ccccc2S3)oc(N2CCOCC2)c1 | 102 |
| Cn1nc2c3c(cccc31)C(=O)c1ccccc1-2 | 94.6 |
| c1ccc(-c2[nH]ncc2-c2ccnc3ccccc23)nc1 | 98.5 |
| c1ccc(-c2cnc(Nc3ccc(OCCN4CCCC4)cc3)s2)cc1 | 98.6 |
| N#Cc1c(NC(=O)c2cccc3ccccc23)sc2c1CCCC2 | 96.5 |
| Cc1cc2ncc(-c3ccccc3)nc2cc1C | 90.1 |
| O=C(Nc1cccc(Nc2nccc(Nc3cccc(C(F)(F)F)c3)n2)c1)C1CC1 | 102 |
| C[C@@H]1CCN(C(=O)CC#N)C[C@@H]1N(C)c1ncnc2[nH]ccc12 | 88.3 |
| COc1cc2ncnc(Nc3ccc(O)c(Br)c3)c2cc1OC | 52.2 |
| O=C1c2ccccc2-c2n[nH]c3cccc1c23 | 87.3 |
| COc1cc2ncnc(Nc3cccc(Cl)c3)c2cc1OC | 61.8 |
| Cc1cn(-c2cc(NC(=O)c3ccc(C)c(Nc4nccc(-c5cccnc5)n4)c3)cc(C(F)(F)F)c2)cn1 | 46.6 |
| CCOc1nc(NC(=O)Cc2cc(OC)ccc2OC)cc(N)c1C#N | 98.5 |
| CN([C@@H](Cc1ccc(OS(=O)(=O)c2cccc3cnccc23)cc1)C(=O)N1CCN(c2ccccc2)CC1)S(=O)(=O)c1cccc2cnccc12 | 97.4 |
| O=C(NC(NC(=S)Nc1ccc(F)c([N+](=O)[O-])c1)C(Cl)(Cl)Cl)C(c1ccccc1)c1ccccc1 (stereo not shown) | 107 |
| COc1cc2c(cc1OC)-c1[nH]nc(Nc3cccc(F)c3)c1C2 | 61.9 |
| CCN(CC)C(=O)c1ccc(Nc2nc(OCC3CCCCC3)c3[nH]cnc3n2)cc1 | 63.1 |
| CCN(CC)CCNC(=O)c1c(C)[nH]c(/C=C2\C(=O)Nc3ccc(F)cc32)c1C | 40 |
| Ic1cccc(CSc2nnc(-c3ccncc3)o2)c1 | 104 |
| O=C1C(Cl)=C(N2C(=O)CCC2=O)C(=O)c2ccccc21 | 94.2 |
| Nc1cccc(-c2cc3c(Oc4cccc(O)c4)ncnc3[nH]2)c1 | 6.65 |
| CCN(CC)CCNC(=O)c1c(C)[nH]c(/C=C2\C(=O)Nc3ccc(Cl)cc32)c1C | 34.3 |
| CN(C)C[C@H]1CCn2c(c(C3=C(c4cn(C)c5ccccc45)C(=O)NC3=O)c3ccccc32)C1 | 95.3 |
| N#C/C(=C\c1ccc(O)c(O)c1)C(=O)NCc1ccccc1 | 97.5 |
| Cc1nc2cc3nc(-c4cccs4)cnc3cc2n1C | 98 |

Study 4
Compound: CC(=O)N[C@@H](Cc1c[nH]c2ccccc12)C(=O)N[C@@H](CCC(=O)C=[N+]=[N-])C(=O)OC(C)C
Species: C57BL/6 CES1-/- mice, MC-38 tumour
Dose: dose not given
Added: anti-PD-1
Relative to: initial
| time | body weight |
| --- | --- |
| day 25 after inoculation | 97.7% and 96.2% and 102% and 98.9% and 93.5% and 98.8% and 97.4% |
| day 18 after inoculation | 97.2% and 93.9% and 95.9% and 95% and 96.7% and 98.6% and 98.7% |
| day 56 after inoculation | 98.1% and 89.9% and 100% and 105% and 87% |
| day 21 after inoculation | 92.9% and 96.4% and 95.2% and 101% and 98% and 95.9% |
| day 14 after inoculation | 96.8% and 95.9% and 99.6% and 98.7% and 94.6% and 94.8% |
| day 31 after inoculation | 93.5% and 99.5% and 96.4% and 97.4% and 99.1% and 94.3% and 96.1% |
| day 27 after inoculation | 95.6% and 93.9% and 99.3% and 97.2% and 96.8% and 99.5% and 99.2% |
| day 77 after inoculation | 105% and 101% |

For quick reference, copied from above (study 4):
| time | body weight |
| --- | --- |
| day 18 after inoculation | 97.2% and 93.9% and 95.9% and 95% and 96.7% and 98.6% and 98.7% |
| day 56 after inoculation | 98.1% and 89.9% and 100% and 105% and 87% |
| day 21 after inoculation | 92.9% and 96.4% and 95.2% and 101% and 98% and 95.9% |
| day 14 after inoculation | 96.8% and 95.9% and 99.6% and 98.7% and 94.6% and 94.8% |
| day 31 after inoculation | 93.5% and 99.5% and 96.4% and 97.4% and 99.1% and 94.3% and 96.1% |
